Measured values from different studies.
Numbered parts are unrelated; each lists some results of a single study.

Study 1
Target: PABPC1L2, full length, GST fusion (mouse, UniProt A0ABA7IW68)
Technique: RNAcompete
Molecule type: RNA
Matrix: in vitro
Concentration: 20 nM
Notes: 7-mer, probes averaged, single round
Relative to: mean of 7-mers
Reading: higher = stronger binding
Residues (chain): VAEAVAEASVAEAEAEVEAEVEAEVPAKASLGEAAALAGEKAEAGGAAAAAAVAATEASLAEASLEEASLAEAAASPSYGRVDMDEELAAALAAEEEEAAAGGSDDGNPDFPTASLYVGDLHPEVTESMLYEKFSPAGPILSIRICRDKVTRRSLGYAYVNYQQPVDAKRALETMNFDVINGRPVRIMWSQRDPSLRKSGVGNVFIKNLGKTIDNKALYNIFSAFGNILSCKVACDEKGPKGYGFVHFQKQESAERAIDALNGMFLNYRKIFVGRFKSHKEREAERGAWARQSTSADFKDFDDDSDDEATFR
Oligonucleotide	7-mer Z-score
CACCGCC	-0.206
ACUGGUG	0.0134
UUGUGGG	-0.133
GUGGGGA	0.412
UGGGUCC	-0.079
UACUACU	-0.204
CCCCAGU	-0.251
GACCCAU	-0.161
CUAUUUG	-0.461
ACUUCCA	0.017

Study 2
Target: Histone acetyltransferase KAT6A, winged helix 1, GST fusion (KAT6A, Homo sapiens, UniProt Q92794, residues 1-85)
Technique: protein binding microarray
Molecule type: double-stranded DNA, one strand shown
Matrix: in vitro
Concentration: not given
Notes: 8-mer, flanks averaged, mean of 2 arrays, mostly near background
Relative to: not given
Reading: higher = stronger binding
Construct (chain): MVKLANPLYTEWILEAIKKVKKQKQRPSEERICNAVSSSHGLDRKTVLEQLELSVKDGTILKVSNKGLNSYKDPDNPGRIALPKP
Oligonucleotide	E-score
CAAGGAGC	-0.0712
GTAAGGCA	-0.145
CCTCCTGA	-0.153
ACTGATAC	-0.0274
TGGAGGAA	-0.122
ATCTTAGC	-0.0621
ACGCCGGG	0.396
CCCCGCCA	0.354

Study 3
Target: Prothrombin, mature alpha-thrombin (F2, Homo sapiens, UniProt P00734)
Technique: aptamer microarray, sandwich
Molecule type: DNA with 2'F-ANA
Matrix: in vitro
Concentration: 200 nM
Notes: whole 15-mer aptamer, many near background
Together with: Cy3 exosite-II aptamer, 400 nM
Reading: higher = stronger binding
Oligonucleotide: GGTTGGTGTGGTTGG
Modification	mean fluorescence intensity
2'F-ANA at 1 5 6 7 9 12 13 14	57.8 a.u.
2'F-ANA at 3 4 6 8 11 12 13 14	267 a.u.
2'F-ANA at 2 4 8 9 10 11 14	102 a.u.
2'F-ANA at 2 3 4 5 7 8 11 13	69.6 a.u.
2'F-ANA at 2 6 8 9 10 12 13 15	139 a.u.
2'F-ANA at 4 6 7 10 11 13 15	63.2 a.u.
2'F-ANA at 1 2 4 5 6 11 12 13	65.6 a.u.
2'F-ANA at 1 4 7 8 10 12 13 14 15	47 a.u.

Mixed results
Substance	target	test	system	setting	scale	quantity	result
PhoQ, residues 284 288 289 292 302 303 SSYNSA	PhoP, residues 12 14 15 18 19 NMSSL (Escherichia coli, UniProt P23836)	Sort-seq, refers to: YFP reporter	E. coli	PhoQ-PhoP variant library, together with: 10 µM Mg2+	relative to: high Mg2+ state, higher = stronger signaling	fold induction	9.05

Some of these lines once more (study 1):
Oligonucleotide	7-mer Z-score
GACCCAU	-0.161
CUAUUUG	-0.461
